Results collected from several papers.
A part holds a random share of what one study measured. Positions count from the first letter of the parent shown.

Study 1 — method: protein-binding microarray; form: double-stranded DNA, one strand shown; medium: in vitro; concentration: not given; reading: higher = stronger binding; quantity: E-score
Target: Transcriptional repressor CTCF (CTCF, Homo sapiens, UniProt P49711, residues 1-727, full length assumed)
UniProt P49711, sequence (whole entry, looked up): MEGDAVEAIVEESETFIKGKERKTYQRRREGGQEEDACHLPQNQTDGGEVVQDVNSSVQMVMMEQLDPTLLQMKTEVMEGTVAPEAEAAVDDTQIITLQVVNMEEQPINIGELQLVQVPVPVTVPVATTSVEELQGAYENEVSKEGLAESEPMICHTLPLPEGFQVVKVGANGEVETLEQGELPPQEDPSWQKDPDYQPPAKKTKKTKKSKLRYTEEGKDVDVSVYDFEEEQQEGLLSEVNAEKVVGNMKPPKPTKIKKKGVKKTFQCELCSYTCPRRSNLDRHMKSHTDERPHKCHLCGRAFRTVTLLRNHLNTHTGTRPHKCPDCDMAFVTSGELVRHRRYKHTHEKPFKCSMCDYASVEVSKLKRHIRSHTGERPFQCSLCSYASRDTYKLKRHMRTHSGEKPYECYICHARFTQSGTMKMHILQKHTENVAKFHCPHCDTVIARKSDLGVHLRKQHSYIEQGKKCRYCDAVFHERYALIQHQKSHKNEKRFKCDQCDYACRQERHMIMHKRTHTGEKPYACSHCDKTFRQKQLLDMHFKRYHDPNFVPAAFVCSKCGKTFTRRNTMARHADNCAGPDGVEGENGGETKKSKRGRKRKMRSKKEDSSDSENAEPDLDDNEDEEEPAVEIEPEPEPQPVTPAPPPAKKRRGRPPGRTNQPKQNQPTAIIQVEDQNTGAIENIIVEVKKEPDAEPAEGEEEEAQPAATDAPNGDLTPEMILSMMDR
Notes: k-mer, scored over probes, only values ≥0.25
AATGATTA: 0.258
AATTTCCA: 0.318
ATTTGTAA: 0.27
ATATGGTG: 0.255
ACATCACT: 0.29
CATATAAC: 0.293
AAAATGTA: 0.278
CCCCCTAG: 0.395
ATATTTCC: 0.258
AAATACCT: 0.255
AAAAAGCG: 0.271
GGGAATGA: 0.25
ATATTCCA: 0.285
ATTTACTC: 0.305
CGTTGCGC: 0.267
CATTACCA: 0.355
CTATTGTA: 0.257
CATGTTTC: 0.313
TAACGTTA: 0.28

Study 2 — method: RNA Bind-n-Seq; form: RNA; medium: in vitro; concentration: 200 nM; notes: whole 134-nt RNA, ends assumed; together with: 150 mM KCl; reference: input library; reading: higher = stronger binding; quantity: log2 enrichment
Target: Fragile X messenger ribonucleoprotein 1, C-terminal low-complexity region (Fmr1, Mus musculus, UniProt P35922)
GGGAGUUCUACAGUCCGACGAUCAAGUCCUGUGCUACACAUCGUAUGUACCGAAUCGGGGUUUGGGGAGGGGUUUGGGGAAAGUAUUAUGUUACGCCGUUCGGAUCUGCACUUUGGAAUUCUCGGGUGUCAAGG: 0.838
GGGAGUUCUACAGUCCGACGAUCGUCCUGUGCUACACAUCGUAUGUACCGAAUCGGGGUUUGGGGUGGGGUUUUUUUGGGGAAAGUAUUAUGUUACGCCGUUCGGAUCUGCACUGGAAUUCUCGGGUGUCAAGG: 0.74
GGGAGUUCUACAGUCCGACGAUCAGUCCUGUGCUACACAUCGUAUGUACCGAAUCGGGGUGGGGUUUUUGGGGUUUGGGGAAAGUAUUAUGUUACGCCGUUCGGAUCUGCACUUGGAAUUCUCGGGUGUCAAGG: 0.845
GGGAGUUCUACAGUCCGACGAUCGUCCUGUGCUACACAUCGUAUGUACCGAAUCGGGUUUUUUUGGGAAAAAAAGGGUGGGAAAGUAUUAUGUUACGCCGUUCGGAUCUGCACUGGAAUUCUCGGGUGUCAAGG: 0.0933
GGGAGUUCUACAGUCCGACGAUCAGUCCUGUGCUACACAUCGUAUGUACCGAAUCGGGGUUUUUGGGGAAAGGGGAGGGGAAAGUAUUAUGUUACGCCGUUCGGAUCUGCACUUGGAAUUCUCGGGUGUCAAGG: 0.423
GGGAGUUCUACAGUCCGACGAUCGUCCUGUGCUACACAUCGUAUGUACCGAAUCGGGGAAAGGGGAAAAAGGGGUUUGGGGAAAGUAUUAUGUUACGCCGUUCGGAUCUGCACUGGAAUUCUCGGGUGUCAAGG: 0.337

Study 3 — method: protein binding microarray; form: double-stranded DNA, one strand shown; medium: in vitro; concentration: not given; reference: not given; reading: higher = stronger binding; quantity: E-score
Target: Histone acetyltransferase KAT6A, winged helix 2, GST fusion (KAT6A, Homo sapiens, UniProt Q92794, residues 85-181)
Notes: 8-mer, flanks averaged, mean of 2 arrays, mostly near background
Residues (chain): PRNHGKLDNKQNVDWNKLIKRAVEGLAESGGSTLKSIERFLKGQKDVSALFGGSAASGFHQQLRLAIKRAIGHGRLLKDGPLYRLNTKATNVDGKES
AACGAAGT: -0.00384
TCTTCCAA: 0.0794
GCTTCCTA: 0.0434
CGCCAGTC: 0.0713
CCGAGGTC: 0.0949
TGTACGAA: 0.0376
ACGGCAAT: -0.0432
ATAGACAT: -0.0141
GACTGGGC: 7e-05
GAGGTAAA: 0.0997

Study 4 — target: CCNE2, cyclin fold, Cln2 fusion (human); method: yeast growth competition, sequencing; medium: yeast; notes: weak parent motif; reference: not given; reading: higher = stronger binding; quantity: normalised enrichment score
Starting sequence: PKMYT1 docking peptide (human); SFEPRNLLSLFED
SFEPKNLLSLLED [R5K F11L]: -0.266
AFEPRNLLSLFED [S1A]: -0.213
SFEPRNLESLFED [L8E]: -3.39
SFEPRNLLSQFED [L10Q]: 0.0987
SFPPRNLLSLFED [E3P]: 0.454
SFETRNLLSLFED [P4T]: -0.397
LFEPRNLLSLFED [S1L]: 0.819
SFEPRNFLSLFED [L7F]: -0.346
SDEPRNLLSLFED [F2D]: 0.482
SSEPRNLLSLFED [F2S]: -0.568
SFEPRILLSLFED [N6I]: 0.0686
SFEPRNLLSTFED [L10T]: 0.809

Study 5 — method: competition protein-binding microarray; form: double-stranded DNA, one strand shown; medium: in vitro; concentration: 2 µM; together with: Cbf1 competitor, 0.05 µM; reading: higher = stronger binding; quantity: fluorescence intensity
Target: Phosphate system positive regulatory protein PHO4, full length, GST-tagged (PHO4, Saccharomyces cerevisiae, UniProt P07270, residues 1-312)
Notes: whole 60-bp probe, lowest competitor level
Residues (chain): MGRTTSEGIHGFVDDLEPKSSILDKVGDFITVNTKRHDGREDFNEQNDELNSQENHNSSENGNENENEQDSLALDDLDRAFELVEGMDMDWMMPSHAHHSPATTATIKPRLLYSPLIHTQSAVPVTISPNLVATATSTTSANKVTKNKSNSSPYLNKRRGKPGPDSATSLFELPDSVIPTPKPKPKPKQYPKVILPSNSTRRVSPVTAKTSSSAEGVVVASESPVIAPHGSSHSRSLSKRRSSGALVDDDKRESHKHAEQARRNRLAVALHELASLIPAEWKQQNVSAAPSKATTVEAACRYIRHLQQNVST
CGACACCGATAGCGTCATGTGTAGCAACCCAAATAAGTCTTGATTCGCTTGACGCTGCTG: 6100 a.u.
GTCTTGTCTCATTTTCACGTGAAGTTCCCCACTTCAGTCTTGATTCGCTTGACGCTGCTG: 8850 a.u.
TACTGCTTCCAGGTCCACGTTCTTCTTTTTGCCTCCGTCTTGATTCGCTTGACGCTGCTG: 12300 a.u.
AAATTACTAAGTTGTAACGTGGGTGACGCCGTATGAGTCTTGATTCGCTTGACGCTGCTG: 10500 a.u.
AAGACGCTGATTCACCACGTGAGACGAAGATTCAAAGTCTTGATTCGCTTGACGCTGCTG: 14900 a.u.
AAATTACTAAGTTGTGTCGTGGGTGACGCCGTATGAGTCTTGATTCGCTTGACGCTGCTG: 6520 a.u.
TTCCAAATCTTTCCGAAAAAAATTCTCTAGCGGATTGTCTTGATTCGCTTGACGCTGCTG: 2150 a.u.
GCTGGTGTCTCGTCGCACATGCTATTGTGTGTCATCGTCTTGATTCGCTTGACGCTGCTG: 10800 a.u.
CATCATGCAGGTCCACACGTGATGGGAAGGGCAACGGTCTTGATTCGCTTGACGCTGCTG: 16800 a.u.
CGTCCTAGTGATTGTAGTGTGGGTGCCATGAGGAAGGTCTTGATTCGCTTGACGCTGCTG: 7940 a.u.
TTTTCCGCCGCAATTTTCGTGACGGATGTCGTTCAGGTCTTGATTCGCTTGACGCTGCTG: 3520 a.u.
AAAGAGACACAAAACTACGTGGGACAAGCTTGGGGTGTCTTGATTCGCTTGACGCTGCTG: 6110 a.u.

Study 6 — method: universal PBM; form: double-stranded DNA, one strand shown; medium: in vitro; concentration: not given; reading: higher = stronger binding; quantity: E-score
Target: Sal-like protein 4, full length isoform B (SALL4, Homo sapiens, UniProt Q9UJQ4-2, residues 1-616)
Notes: 8-mer, flanks averaged, mean of replicates
Residues (chain): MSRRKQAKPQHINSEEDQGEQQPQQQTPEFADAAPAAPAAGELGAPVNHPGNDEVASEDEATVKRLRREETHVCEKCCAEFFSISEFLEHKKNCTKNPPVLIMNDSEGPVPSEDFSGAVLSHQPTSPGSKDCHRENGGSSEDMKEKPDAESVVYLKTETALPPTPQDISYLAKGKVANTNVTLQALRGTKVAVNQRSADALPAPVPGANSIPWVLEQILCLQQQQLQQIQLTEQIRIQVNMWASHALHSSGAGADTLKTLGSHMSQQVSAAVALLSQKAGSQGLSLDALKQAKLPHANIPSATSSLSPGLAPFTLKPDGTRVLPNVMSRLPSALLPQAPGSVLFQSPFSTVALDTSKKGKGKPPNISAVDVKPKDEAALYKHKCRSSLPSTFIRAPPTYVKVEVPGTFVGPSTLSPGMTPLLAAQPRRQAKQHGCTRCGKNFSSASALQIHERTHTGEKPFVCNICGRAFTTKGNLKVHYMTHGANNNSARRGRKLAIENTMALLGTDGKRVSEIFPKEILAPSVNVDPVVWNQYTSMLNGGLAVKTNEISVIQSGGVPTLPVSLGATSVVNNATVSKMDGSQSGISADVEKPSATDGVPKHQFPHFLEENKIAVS
AATAGCTG: 0.0431
CACTGTCC: -0.0612
TGCCTAAA: -0.00652
CCCCCTCA: -0.186
CAATACAG: 0.119
AGCGCACA: -0.151
CACTTGGC: -0.132
ACGACCCC: -0.209
CAAACGCA: -0.001
AATACTTG: 0.181
TAACACAA: 0.234
CGGATGCA: -0.12
AATGATTC: 0.324
TCAGGACA: -0.0189
CGACGTAA: 0.0552
AAGGAATC: -0.106
CCTAGCTC: -0.303
CATGGGCA: -0.231
GAGGTCGC: -0.288
GAATCCCA: -0.0374
ACATGGAT: 0.231
CAACTAAC: 0.011

Study 7 — method: protein-binding microarray; form: double-stranded DNA, one strand shown; medium: in vitro; concentration: 940 nM top; notes: 60-bp whole probe; together with: salmon DNA 0.4 mg/ml; reference: random background probes; reading: higher = stronger binding; quantity: fitted relative affinity; all sequences stand within: GCCTAGCAC … GTCTTGATTCGCTTGACGCTGCTG
Target: Interferon regulatory factor 5, full length, phosphomimetic (IRF5, Homo sapiens, UniProt Q13568-2, residues 1-514, S451D/S453D/S456D/S462D)
CTTGCTTCCTAATTCTCTTTGTGCTAG: 1.37 z-score
GACGGACTGGGGATTGGGGACGTGCTA: -0.3 z-score
ACGCATGTGGGTTCCATCATGTGCTAG: -0.453 z-score
TTAGGACTGGGGTTTTGGTTAGTGCTA: 0.533 z-score
TCATGGTTCCCATTCCAACTGTGCTAG: 0.344 z-score
CTCATGTTACATTTATATCTGTGCTAG: 0.72 z-score
TTAGGTTTCGACTAACGGTTAGTGCTA: 10.3 z-score
GAACTTCTGCATTACAGCTAGTGCTAG: -0.387 z-score
TTAGGTTTCGGGTCCGGTTAGTGCTAG: 10.3 z-score
CTCTCTTTCCAACTCTGTTTGTGCTAG: 1.77 z-score
TCTGTTTTTGCTTTCCTTTAGTGCTAG: 2.11 z-score
TCATGTATGGATGTGTCACTGTGCTAG: 0.147 z-score
GAAAATGCCCTTTTGGTGAGGTGCTAG: -0.447 z-score
GACGGTATCGACAATGGGGACGTGCTA: 3.59 z-score
AACGGTTTCGGGTTTCGGGACGTGCTA: 9.03 z-score
